{"data": "Measurements gathered from unrelated publications", "B1": "adiponectin; sequence looked up; chain ETTTQGPGVLLPLPKGACTGWMAGIPGHPGHNGAPGRDGRDGTPGEKGEKGDPGLIGPKGDIGETGVPGAEGPRGFPGIQGRKGEPGEGAYVYRSAFSVGLETYVTIPNMPIRFTKIFYNQQNHYDGSTGKFHCNIPGLYYFAYHITVYMKDVKVSLFKKDKAMLFTYDQYQENNVDQASGSVLLHLEVGDQVWLQVYGEGERNGLYADNDNDSTFTGFLLYHDTN", "B2": "UGT1A9 (Homo sapiens, UniProt O60656); chain GKLLVVPMDGSHWFTMRSVVEKLILRGHEVVVVMPEVSWQLGRSLNCTVKTYSTSYTLEDLDREFKAFAHAQWKAQVRSIYSLLMGSYNDIFDLFFSNCRSLFKDKKLVEYLKESSFDAVFLDPFDNCGLIVAKYFSLPSVVFARGILCHYLEEGAQCPAPLSYVPRILLGFSDAMTFKERVRNHIMHLEEHLLCHRFFKNALEIASEILQTPVTEYDLYSHTSIWLLRTDFVLDYPKPVMPNMIFIGGINCHQGKPLPMEFEAYINASGEHGIVVFSLGSMVSEIPEKKAMAIADALGKIPQTVLWRYTGTRPSNLANNTILVKWLPQNDLLGHPMTRAFITHAGSHGVYESICNGVPMVMMPLFGDQMDNAKRMETKGAGVTLNVLEMTSEDLENALKAVINDKSYKENIMRLSSLHKDRPVEPLDLAVFWVEFVMRHKGAPHLRPAAHDLTWYQYHSLDVIGFLLAVVLTVAFITFKCCAYGYRKCLGKKGRVKKAHKSKTH", "note": "Compare with care: the assays were run in different laboratories. Numbers after ± are the reported error."}
{"Substance": "COc1ccc2cc3[n+](cc2c1OCCc1cn(Cc2ccc(Cl)c(Cl)c2)nn1)CCc1cc2c(cc1-3)OCO2", "target or system": "HUVEC", "test": "cell growth or viability, MTT", "quantity": "IC50", "value": "15.7 µM"}
{"Substance": "COc1ccc(C[S+]([O-])c2ccc3ccccc3c2)cc1NCC(=O)O (stereo not drawn)", "target or system": "HUVEC", "test": "cell growth or viability, MTS", "conditions": "48 h", "quantity": "IC50", "value": "6.77 µM"}
{"Substance": "COc1ccc2cc3[n+](cc2c1OCCc1cn(Cc2ccc(Br)cc2)nn1)CCc1cc2c(cc1-3)OCO2", "target or system": "HUVEC", "test": "cell growth or viability, MTT", "quantity": "IC50", "value": "11.2 µM"}
{"Substance": "LRRFSTMPFMFGNINNVGNF", "target or system": "HUVEC", "test": "cell adhesion, real-time cell analysis", "test system": "peptide", "conditions": "100 µM, 3 h", "how to read": "reference: vehicle", "quantity": "inhibition", "value": "97.8 ± 0.15%"}
{"Substance": "B1 (adiponectin)", "target or system": "HUVEC", "test": "PBL transendothelial migration, inhibitor", "conditions": "1 h pretreatment, static, together with: TNF-α and IFN-γ", "quantity": "EC50", "value": "0.0026 µM"}
{"Substance": "COc1ccc2cc3[n+](cc2c1OCCc1cn(Cc2ccc(F)cc2F)nn1)CCc1cc2c(cc1-3)OCO2", "target or system": "HUVEC", "test": "cell growth or viability, MTT", "quantity": "IC50", "value": "12.1 µM"}
{"Substance": "LRRFSTMPFMFVNINNVVNF", "target or system": "HUVEC", "test": "cell migration, real-time cell analysis", "test system": "peptide", "conditions": "50 µM, together with: full medium chemoattractant", "how to read": "reference: vehicle", "quantity": "inhibition", "value": "98.78 ± 0.14%"}
{"Substance": "COc1cc(OC)c(/C=C/S(=O)(=O)Cc2ccc(OC)c(NCC(=O)O)c2)c(OC)c1", "target or system": "HUVEC", "test": "cell growth or viability, MTS", "conditions": "48 h", "quantity": "IC50", "value": "0.122 µM"}
{"Substance": "B2 (UGT1A9)", "target or system": "COc1ccc(-c2coc3cc(O)ccc3c2=O)cc1", "test": "steady-state kinetics", "conditions": "pH 7.4, 37 °C", "quantity": "Vmax/Km", "value": "30 µL/min/mg"}
{"Substance": "COc1ccc(CS(=O)(=O)c2ccc3cc(Br)ccc3c2)cc1N", "target or system": "HUVEC", "test": "cell growth or viability, MTS", "conditions": "48 h", "quantity": "IC50", "value": "1.82 µM"}
{"Substance": "LRRFSTMPFMFTNINNVTNF", "target or system": "HUVEC", "test": "cell adhesion, real-time cell analysis", "test system": "peptide", "conditions": "100 µM, 3 h", "how to read": "reference: vehicle", "quantity": "inhibition", "value": "98.69 ± 0.08%"}
{"Substance": "VEGF", "target or system": "HUVEC", "test system": "Matrigel", "conditions": "1 ng/mL, 5 min then 8 h continuous", "how to read": "reference: control media", "quantity": "tube length", "value": "1.8 fold"}
{"note": "Excerpt of the above:"}
{"Substance": "COc1cc(OC)c(/C=C/S(=O)(=O)Cc2ccc(OC)c(NCC(=O)O)c2)c(OC)c1", "target or system": "HUVEC", "test": "cell growth or viability, MTS", "conditions": "48 h", "quantity": "IC50", "value": "0.122 µM"}
